Assay results of several laboratories.
Compare with care: the assays were run in different laboratories. “And” joins repeats or separate records; there may be more than shown. ± gives the spread as reported.
GUK1: GUK1 (Homo sapiens, UniProt Q16774)
UniProt Q16774, sequence (whole entry, looked up): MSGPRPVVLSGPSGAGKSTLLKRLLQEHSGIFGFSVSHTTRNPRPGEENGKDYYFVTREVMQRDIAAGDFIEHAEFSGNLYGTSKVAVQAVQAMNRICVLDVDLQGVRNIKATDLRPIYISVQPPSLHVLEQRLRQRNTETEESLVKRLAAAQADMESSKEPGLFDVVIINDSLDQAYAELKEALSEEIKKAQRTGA
MT-CYB/UQCRFS1: MT-CYB/UQCRFS1 (Homo sapiens, UniProt P00156+P47985)
UniProt Q80VM9, sequence (whole entry, looked up): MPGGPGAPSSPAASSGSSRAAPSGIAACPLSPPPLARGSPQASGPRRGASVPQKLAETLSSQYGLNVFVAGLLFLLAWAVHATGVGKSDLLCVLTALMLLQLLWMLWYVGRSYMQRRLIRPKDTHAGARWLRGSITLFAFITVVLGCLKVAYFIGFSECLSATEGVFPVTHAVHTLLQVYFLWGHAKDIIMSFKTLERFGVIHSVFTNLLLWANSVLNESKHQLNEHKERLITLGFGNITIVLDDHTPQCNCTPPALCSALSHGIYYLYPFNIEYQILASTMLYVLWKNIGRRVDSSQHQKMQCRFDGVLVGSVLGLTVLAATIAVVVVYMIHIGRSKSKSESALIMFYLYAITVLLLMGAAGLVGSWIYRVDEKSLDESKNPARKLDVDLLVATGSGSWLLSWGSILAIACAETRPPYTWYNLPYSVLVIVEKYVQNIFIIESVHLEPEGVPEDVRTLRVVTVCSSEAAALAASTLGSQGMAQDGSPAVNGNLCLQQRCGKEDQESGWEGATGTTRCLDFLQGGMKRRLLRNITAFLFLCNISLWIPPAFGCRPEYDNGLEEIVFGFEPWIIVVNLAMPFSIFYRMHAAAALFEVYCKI
UniProt P63092, sequence (whole entry, looked up): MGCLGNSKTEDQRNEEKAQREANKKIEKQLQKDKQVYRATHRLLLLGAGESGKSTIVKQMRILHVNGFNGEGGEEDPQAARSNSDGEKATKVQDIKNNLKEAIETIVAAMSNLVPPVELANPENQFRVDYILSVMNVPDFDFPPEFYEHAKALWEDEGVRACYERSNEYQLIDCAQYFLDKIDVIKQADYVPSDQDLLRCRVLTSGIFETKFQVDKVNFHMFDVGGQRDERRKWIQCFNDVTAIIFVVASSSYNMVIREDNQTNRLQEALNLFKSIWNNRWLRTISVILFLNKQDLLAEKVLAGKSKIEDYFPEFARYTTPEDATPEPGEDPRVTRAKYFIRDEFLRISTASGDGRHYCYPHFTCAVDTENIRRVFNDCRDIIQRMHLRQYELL
UniProt P00156, sequence (whole entry, looked up): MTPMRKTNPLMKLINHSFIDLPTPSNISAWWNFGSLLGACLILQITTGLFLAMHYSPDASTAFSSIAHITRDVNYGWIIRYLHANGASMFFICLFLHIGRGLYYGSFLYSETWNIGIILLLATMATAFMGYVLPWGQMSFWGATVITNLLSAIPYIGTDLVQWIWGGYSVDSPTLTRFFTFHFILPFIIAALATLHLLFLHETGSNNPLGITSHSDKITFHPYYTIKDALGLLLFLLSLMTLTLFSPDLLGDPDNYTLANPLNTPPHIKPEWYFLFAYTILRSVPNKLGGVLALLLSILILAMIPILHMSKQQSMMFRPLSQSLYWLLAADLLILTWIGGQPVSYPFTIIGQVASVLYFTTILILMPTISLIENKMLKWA
UniProt P47985, sequence (whole entry, looked up): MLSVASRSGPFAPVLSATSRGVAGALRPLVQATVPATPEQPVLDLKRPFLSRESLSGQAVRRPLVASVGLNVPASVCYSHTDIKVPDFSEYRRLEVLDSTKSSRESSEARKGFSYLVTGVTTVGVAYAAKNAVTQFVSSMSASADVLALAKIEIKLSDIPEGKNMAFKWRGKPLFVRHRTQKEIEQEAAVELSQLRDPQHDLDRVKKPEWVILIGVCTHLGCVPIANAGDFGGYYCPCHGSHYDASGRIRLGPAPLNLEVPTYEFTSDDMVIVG
UniProt P51575, sequence (whole entry, unmodified, looked up): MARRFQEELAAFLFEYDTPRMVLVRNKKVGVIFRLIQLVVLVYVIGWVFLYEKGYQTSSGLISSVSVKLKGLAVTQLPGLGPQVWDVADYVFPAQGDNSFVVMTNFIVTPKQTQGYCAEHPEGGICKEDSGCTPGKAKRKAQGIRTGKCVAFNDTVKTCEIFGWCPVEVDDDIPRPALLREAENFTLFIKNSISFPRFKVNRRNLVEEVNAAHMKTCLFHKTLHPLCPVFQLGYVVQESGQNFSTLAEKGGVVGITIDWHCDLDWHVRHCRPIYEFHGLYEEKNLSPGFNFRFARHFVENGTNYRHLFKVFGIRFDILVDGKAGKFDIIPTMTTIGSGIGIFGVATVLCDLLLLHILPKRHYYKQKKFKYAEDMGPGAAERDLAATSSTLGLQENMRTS
UniProt Q86SQ6, sequence (whole entry, looked up): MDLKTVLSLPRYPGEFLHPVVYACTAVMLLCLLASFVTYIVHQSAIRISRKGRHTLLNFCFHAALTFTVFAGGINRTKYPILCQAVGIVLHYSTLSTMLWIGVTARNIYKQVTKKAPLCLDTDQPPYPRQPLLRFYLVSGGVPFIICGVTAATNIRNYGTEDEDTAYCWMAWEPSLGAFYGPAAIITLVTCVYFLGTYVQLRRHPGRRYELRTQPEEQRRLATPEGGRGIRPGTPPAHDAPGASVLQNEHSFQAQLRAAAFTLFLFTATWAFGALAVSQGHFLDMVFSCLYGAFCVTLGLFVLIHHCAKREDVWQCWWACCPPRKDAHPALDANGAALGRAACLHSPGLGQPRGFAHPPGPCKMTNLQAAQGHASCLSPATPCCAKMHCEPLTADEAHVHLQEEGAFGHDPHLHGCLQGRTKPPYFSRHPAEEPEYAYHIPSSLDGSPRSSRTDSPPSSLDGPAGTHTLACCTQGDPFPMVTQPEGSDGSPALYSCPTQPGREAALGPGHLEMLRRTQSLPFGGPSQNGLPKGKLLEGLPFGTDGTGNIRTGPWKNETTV
UniProt P02749, sequence (whole entry, unmodified, looked up): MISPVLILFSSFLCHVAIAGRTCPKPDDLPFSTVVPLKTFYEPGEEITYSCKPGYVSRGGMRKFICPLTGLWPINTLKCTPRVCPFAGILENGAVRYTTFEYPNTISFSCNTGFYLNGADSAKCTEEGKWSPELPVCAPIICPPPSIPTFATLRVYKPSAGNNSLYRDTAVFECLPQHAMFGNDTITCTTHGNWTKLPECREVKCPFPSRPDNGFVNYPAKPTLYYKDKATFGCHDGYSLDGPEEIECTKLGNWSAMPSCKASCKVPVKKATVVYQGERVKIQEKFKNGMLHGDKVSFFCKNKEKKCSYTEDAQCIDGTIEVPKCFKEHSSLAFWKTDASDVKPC
UniProt P16257, sequence (whole entry, looked up): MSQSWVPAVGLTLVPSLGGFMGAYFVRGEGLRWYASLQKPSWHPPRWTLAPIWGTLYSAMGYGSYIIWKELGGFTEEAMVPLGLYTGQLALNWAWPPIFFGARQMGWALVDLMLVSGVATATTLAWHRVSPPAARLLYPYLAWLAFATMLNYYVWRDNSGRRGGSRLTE
UniProt Q13258, sequence (whole entry, looked up): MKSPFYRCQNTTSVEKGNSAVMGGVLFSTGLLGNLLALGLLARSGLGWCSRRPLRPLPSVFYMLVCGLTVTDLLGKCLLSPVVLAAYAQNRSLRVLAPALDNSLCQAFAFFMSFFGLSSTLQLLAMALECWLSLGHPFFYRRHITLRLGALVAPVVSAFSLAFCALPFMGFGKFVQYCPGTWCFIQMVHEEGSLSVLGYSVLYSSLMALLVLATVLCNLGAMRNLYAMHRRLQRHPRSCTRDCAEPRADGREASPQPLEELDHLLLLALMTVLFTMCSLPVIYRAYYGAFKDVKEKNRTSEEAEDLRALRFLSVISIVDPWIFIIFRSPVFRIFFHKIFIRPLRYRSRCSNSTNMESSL
UniProt Q14145, sequence (whole entry, unmodified, looked up): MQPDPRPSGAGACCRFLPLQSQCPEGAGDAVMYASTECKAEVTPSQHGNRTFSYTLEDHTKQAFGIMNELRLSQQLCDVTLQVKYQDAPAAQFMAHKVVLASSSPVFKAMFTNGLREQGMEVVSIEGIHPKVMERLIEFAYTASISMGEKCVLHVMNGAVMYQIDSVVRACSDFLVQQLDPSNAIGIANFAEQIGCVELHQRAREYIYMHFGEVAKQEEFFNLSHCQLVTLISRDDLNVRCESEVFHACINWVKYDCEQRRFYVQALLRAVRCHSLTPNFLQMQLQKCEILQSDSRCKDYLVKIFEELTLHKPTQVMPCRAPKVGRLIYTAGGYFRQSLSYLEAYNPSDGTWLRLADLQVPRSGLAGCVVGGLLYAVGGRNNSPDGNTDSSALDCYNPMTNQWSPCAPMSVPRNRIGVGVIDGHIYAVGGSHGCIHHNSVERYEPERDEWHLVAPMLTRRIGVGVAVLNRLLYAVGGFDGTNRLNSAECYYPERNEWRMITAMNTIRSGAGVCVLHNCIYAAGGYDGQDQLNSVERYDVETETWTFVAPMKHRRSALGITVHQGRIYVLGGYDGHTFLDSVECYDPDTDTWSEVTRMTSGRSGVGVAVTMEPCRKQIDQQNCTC
UniProt Q05097, sequence (whole entry, looked up): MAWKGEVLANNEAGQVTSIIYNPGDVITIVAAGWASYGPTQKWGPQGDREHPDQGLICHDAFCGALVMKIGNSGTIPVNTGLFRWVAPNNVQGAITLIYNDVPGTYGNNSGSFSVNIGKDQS
UniProt P78356, sequence (whole entry, looked up): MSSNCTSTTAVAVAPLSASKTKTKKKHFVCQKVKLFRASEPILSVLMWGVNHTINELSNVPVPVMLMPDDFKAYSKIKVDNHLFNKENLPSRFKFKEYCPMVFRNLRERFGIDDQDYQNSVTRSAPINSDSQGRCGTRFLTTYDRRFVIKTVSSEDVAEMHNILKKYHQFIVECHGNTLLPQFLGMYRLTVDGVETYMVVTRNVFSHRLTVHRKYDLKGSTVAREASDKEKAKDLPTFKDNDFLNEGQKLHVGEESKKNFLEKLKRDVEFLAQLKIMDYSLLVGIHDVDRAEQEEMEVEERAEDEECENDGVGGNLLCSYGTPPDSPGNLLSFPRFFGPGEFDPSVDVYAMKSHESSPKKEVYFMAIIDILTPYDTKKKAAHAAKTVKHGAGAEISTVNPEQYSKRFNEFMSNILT

SMILES | target | test | system | setting | how to read | endpoint | value
CO[C@H]1O[C@H](COS(=O)(=O)O)[C@@H](O[C@@H]2O[C@@H](C(=O)O)[C@@H](O[C@H]3O[C@H](COS(=O)(=O)O)[C@@H](O[C@@H]4O[C@H](C(=O)O)[C@@H](O[C@H]5O[C@H](COS(=O)(=O)O)[C@@H](O)[C@H](O)[C@H]5NS(=O)(=O)O)[C@H](O)[C@H]4O)[C@H](OS(=O)(=O)O)[C@H]3NS(=O)(=O)O)[C@H](O)[C@H]2OS(=O)(=O)O)[C@H](O)[C@H]1NS(=O)(=O)O | Beta-2-glycoprotein 1, domain V (APOH, Homo sapiens, UniProt P02749, V266L) | isothermal titration calorimetry |  | added: 150 mM NaCl | relative to: total free energy | salt-independent binding energy share | 63%
Cc1ccc(N(O)N=Nc2ccc(S(=O)(=O)Nc3cc(C)on3)cc2)cc1 | α-glucosidase, rat intestine | enzyme activity |  | 60 µg/mL, added: 4-nitrophenyl α-D-glucopyranoside |  | inhibition | 22.5 ± 1.54%
[Cl-].[K+] | GUK1 | enzyme activity, NADH-coupled |  | 150 mM, enzyme 7.5 nM |  | initial reaction velocity | 0.136 µM/s and 0.163 µM/s and 0.171 µM/s
Cc1cccc(N(O)N=Nc2ccc(S(=O)(=O)Nc3nccs3)cc2)c1 | α-glucosidase, rat intestine | enzyme activity |  | 60 µg/mL, added: 4-nitrophenyl α-D-glucopyranoside |  | inhibition | 10 ± 0.041%
CCN1CCC[C@H]1CNC(=O)c1c(O)c(Cl)cc(Cl)c1OC | Adhesion G protein-coupled receptor A1 (ADGRA1, Homo sapiens, UniProt Q86SQ6) | β-arrestin recruitment, TANGO luminescence, item: GPR123 |  | concentration not given | relative to: basal luminescence | log2 fold change | -0.017
COC(=O)CC1=NN(c2nc3ccccc3[nH]2)C(=O)C1 | Protein lin-28 homolog A (Mus musculus, UniProt Q8K3Y3) |  |  |  |  | Hill slope | -0.7
CC(=O)N[C@H](C(=O)N1C[C@H](O)C[C@H]1C(=O)NCc1ccc(-c2scnc2C)cc1)C(C)(C)SCCCCCCNC(=O)C[C@@H]1N=C(c2ccc(Cl)cc2)c2c(sc(C)c2C)-n2c(C)nnc21 | Bromodomain-containing protein 4, BD2 (BRD4, Homo sapiens, UniProt O60885) | ITC |  | 25 °C, binary |  | ΔG | -10.2 ± 0.1 kcal/mol
C=CC(=O)N1CCN(c2nc(OC[C@@H]3CCCN3C)nc3c(F)c(-c4nc(N)cc(C)c4C(F)(F)F)c(Cl)cc23)[C@@H](C)C1 | GTPase KRas, GDP-bound (KRAS, Homo sapiens, UniProt P01116, G12V) | SPR |  |  |  | dissociation rate constant koff | 0.328 ± 0.22 s⁻¹
CC(C)C(=O)Nc1n[nH]c2cc(-c3cccc(NS(=O)(=O)C4CC4)c3)ccc12 | Phosphatidylinositol 4-phosphate 5-kinase type-1 gamma (PIP5K1C, Homo sapiens, UniProt O60331) | ADP-Glo |  | 1.11 µM, added: 10 µM ATP |  | ADP produced | 2.31 µM
O=C1Nc2ccc(Br)cc2C1=O | Dehaloperoxidase B, ferric (Amphitrite ornata, UniProt Q9NAV7) | product, HPLC |  | added: 5-bromoindole 500 µM, H2O2 1000 µM |  | share of total products | 4.5%
CCCCC[C@H](O)/C=C/[C@H]1C(=O)C[C@H](O)[C@@H]1C/C=C\CCCC(=O)O | Prostaglandin D2 receptor (PTGDR, Homo sapiens, UniProt Q13258) | agonist |  | 1.25 µM |  | activation | 102%
O=c1nc(SCc2cc(F)cc(C(F)(F)F)c2)nc(SCc2ccc3nc(OCCN4CCOCC4)ccc3c2)[nH]1 | DNA topoisomerase 2-alpha (TOP2A, Homo sapiens, UniProt P11388) | decatenation |  | 7.8 µM, replicate 1 |  | decatenated DNA | 90.5%
CCCC(C)N1CCC(N(Cc2ccccc2CNC(=O)CCl)C(=O)Nc2cccc(C(F)(F)F)c2)CC1 (stereo not shown) | DCN1-like protein 1 (Homo sapiens, UniProt Q96GG9) | covalent binder, LC-TOF mass spectrometry |  | 60 µM, overnight, 4 °C, added: DCN1-like protein 1 30 µM |  | covalent adduct formation | 0%
O=C(NO)c1ccc(CN2CCCCc3ccccc32)c(F)c1 | Translocator protein (Tspo, Rattus norvegicus, UniProt P16257) | radioligand binding, radioligand displacement |  | 10 µM, mean of replicates |  | inhibition | -16.3%
CC(=O)N[C@@H](C)C(=O)N[C@@H](CC(N)=O)C(=O)NCC(=O)N[C@@H](CC(N)=O)C(=O)N[C@@H](C)C(=O)N[C@@H](CCC(=O)O)C(=O)N[C@@H](CC(N)=O)C(=O)N[C@@H](CCC(=O)O)C(=O)N[C@@H](CCC(=O)O)C(=O)N[C@@H](CC(N)=O)C(=O)NCC(=O)N[C@@H](CCC(=O)O)C(=O)N[C@@H](CCC(N)=O)C(=O)N[C@@H](CCC(=O)O)C(=O)N[C@@H](C)C(=O)N[C@@H](CC(=O)O)C(=O)N[C@@H](CC(N)=O)C(=O)N[C@@H](CCC(=O)O)C(=O)N[C@H](C(=O)N[C@@H](CC(=O)O)C(N)=O)C(C)C | Kelch-like ECH-associated protein 1, Kelch domain (KEAP1, Homo sapiens, UniProt Q14145) | binding, ITC |  | pH 7, 298.15 K |  | TΔS | -7.66 kcal/mol
NCCCCC(=O)O | Sodium- and chloride-dependent taurine transporter (SLC6A6, Homo sapiens, UniProt P31641, Y138A) | binding, microscale thermophoresis |  | 244 nM, room temperature, added: 50 nM labelled protein | higher = more binding | normalised MST signal | 0.00193

SMILES | target | test | system | setting | how to read | endpoint | value
CCCCC[C@@H]1OC(=O)[C@@H](C)N(C)C(=O)[C@H](CCCCC)OC(=O)[C@@H](C)N(C)C(=O)[C@H](CC(=O)O)OC(=O)[C@@H](C)N(C)C(=O)[C@H](CCCCC)OC(=O)[C@@H](C)N(C)C1=O | ryanodine receptor 2 (Sus scrofa, UniProt A0A5G2R1W3) | single-channel gating, planar lipid bilayer |  | 50 µM, pCa 7, porcine |  | closed dwell time constant T1 | 2 ± 0.8 ms
CCCCC[C@H](O)/C=C/[C@H]1C(=O)C[C@H](O)[C@@H]1C/C=C\CCCC(=O)O | GNAS, with Gbeta and Ggamma (Homo sapiens, UniProt P63092) | modulator |  | 100 µM, without A2AR | relative to: Gs alone | GTP hydrolysis | 83.8% and 73.7% and 82.9% and 75.4%
Cc1ccc(C(=O)Nc2ccc3ccccc3c2)o1 | Otop1 (Mus musculus, UniProt Q80VM9) | proton current, whole-cell patch clamp |  | 10 µM, pH 6 |  | peak current ratio Ip2/Ip1 | 2.5 and 2.26 and 2.25 and 2.23 and 1.91 and 2.1 and 2.46
NC(=O)NOCCCCCCCCCC[P+](c1ccccc1)(c1ccccc1)c1ccccc1.O=C([O-])C(F)(F)F | MT-CYB/UQCRFS1 | complex III-dependent respiration, Seahorse XF96 | HCT-116 | 10 µM, 24 h | relative to: control | oxygen consumption rate | 79.5 ± 7.75%
CO[C@@H]1O[C@H](CO)[C@H](O)[C@H](O)[C@H]1O | PA-I galactophilic lectin (lecA, Pseudomonas aeruginosa, UniProt Q05097) | ITC |  |  | relative to: monovalent Kd over compound Kd | relative potency β | 1
CC[C@@H]1[C@H](F)C(=O)N[C@@H]1COc1nccc2cc(C(N)=O)c(OC)cc12 | Inhibitor of nuclear factor kappa-B kinase subunit epsilon (IKBKE, Homo sapiens, UniProt Q14164) | ATP-site probe binding, ActivX profiling | THP-1 cell lysate | 0.2 mM, Lys1 site |  | inhibition | 30.8%
CCCN(O)N=Nc1ccc(S(=O)(=O)Nc2onc(C)c2C)cc1 | α-glucosidase, rat intestine | enzyme activity |  | 60 µg/mL, added: 4-nitrophenyl α-D-glucopyranoside |  | inhibition | 17.5 ± 0.09%
NC(=O)NOCCCCCCCCCCCCCC[P+](c1ccccc1)(c1ccccc1)c1ccccc1.O=C([O-])C(F)(F)F | MT-CYB/UQCRFS1 | complex III-dependent respiration, Seahorse XF96 | HCT-116 | 0.1 µM, 24 h | relative to: control | oxygen consumption rate | 83.9 ± 10%
Nc1ncnc2c1ncn2[C@@H]1O[C@H](COP(=O)(O)OP(=O)(O)OP(=O)(O)O)[C@@H](O)[C@H]1O | Creatine kinase U-type, mitochondrial (CKMT1A, Homo sapiens, UniProt P12532) | substrate, ADP-Glo luminescence |  | pH 8.5, forward reaction, WT mutant, added: second substrate in excess |  | kcat | 21 ± 9 s⁻¹
Nc1ncnc2c1ncn2[C@@H]1O[C@H](COP(=O)(O)OP(=O)(O)O)[C@@H](O)[C@H]1O | GUK1 | ITC |  | molar ratio 1.955 |  | ΔH | -0.415 kcal/mol
COc1cc(/C=C/c2ccc(O)cc2)cc(OC)c1 | O-methyltransferase (Sorghum bicolor, UniProt A0A1B6PFV1) |  |  | concentration not given, added: SAH+ |  | ΔH of binding | -10.2 ± 0.154 kcal/mol
Nc1ncnc2c1ncn2[C@@H]1O[C@H](COP(=O)(O)CP(=O)(O)OP(=O)(O)O)[C@@H](O)[C@H]1O | P2X purinoceptor 1 (P2RX1, Homo sapiens, UniProt P51575, D170A) | calcium influx |  | 100 nM | relative to: ionomycin response | calcium influx | 0% and 1.67%
NC(=O)NOCCCCCCCCCCCC[P+](c1ccccc1)(c1ccccc1)c1ccccc1.O=C([O-])C(F)(F)F | MT-CYB/UQCRFS1 | complex III-dependent respiration, Seahorse XF96 | HCT-116 | 4 µM, 24 h | relative to: control | oxygen consumption rate | 35 ± 16.2%
CCCCOc1cc(C(=O)NCCN(CC)CC)c2ccccc2n1 | PKD2L1 (Homo sapiens, UniProt Q9P0L9, F549I) |  |  | concentration not given | relative to: wild type | potency reduction | 2 to 10 fold
C=CC(=O)N1CCC(COCC(=O)N2CCN(c3nc(-c4cnc(N)nc4C(F)F)nc(N4CCOC[C@@H]4C)n3)CC2)CC1 | Phosphatidylinositol 5-phosphate 4-kinase type-2 beta (PIP4K2B, Homo sapiens, UniProt P78356) | KINOMEscan |  | 1 µM |  | remaining binding | 86%

Excerpt of the above:
SMILES | target | test | system | setting | how to read | endpoint | value
CCCC(C)N1CCC(N(Cc2ccccc2CNC(=O)CCl)C(=O)Nc2cccc(C(F)(F)F)c2)CC1 (stereo not shown) | DCN1-like protein 1 (Homo sapiens, UniProt Q96GG9) | covalent binder, LC-TOF mass spectrometry |  | 60 µM, overnight, 4 °C, added: DCN1-like protein 1 30 µM |  | covalent adduct formation | 0%
O=C(NO)c1ccc(CN2CCCCc3ccccc32)c(F)c1 | Translocator protein (Tspo, Rattus norvegicus, UniProt P16257) | radioligand binding, radioligand displacement |  | 10 µM, mean of replicates |  | inhibition | -16.3%
CC(=O)N[C@@H](C)C(=O)N[C@@H](CC(N)=O)C(=O)NCC(=O)N[C@@H](CC(N)=O)C(=O)N[C@@H](C)C(=O)N[C@@H](CCC(=O)O)C(=O)N[C@@H](CC(N)=O)C(=O)N[C@@H](CCC(=O)O)C(=O)N[C@@H](CCC(=O)O)C(=O)N[C@@H](CC(N)=O)C(=O)NCC(=O)N[C@@H](CCC(=O)O)C(=O)N[C@@H](CCC(N)=O)C(=O)N[C@@H](CCC(=O)O)C(=O)N[C@@H](C)C(=O)N[C@@H](CC(=O)O)C(=O)N[C@@H](CC(N)=O)C(=O)N[C@@H](CCC(=O)O)C(=O)N[C@H](C(=O)N[C@@H](CC(=O)O)C(N)=O)C(C)C | Kelch-like ECH-associated protein 1, Kelch domain (KEAP1, Homo sapiens, UniProt Q14145) | binding, ITC |  | pH 7, 298.15 K |  | TΔS | -7.66 kcal/mol
NCCCCC(=O)O | Sodium- and chloride-dependent taurine transporter (SLC6A6, Homo sapiens, UniProt P31641, Y138A) | binding, microscale thermophoresis |  | 244 nM, room temperature, added: 50 nM labelled protein | higher = more binding | normalised MST signal | 0.00193
